Results gathered from unrelated publications.
A part holds a random share of what one study measured.

Study 1
Target: Prothrombin, mature alpha-thrombin (F2, Homo sapiens, UniProt P00734)
Method: aptamer microarray, sandwich
Form: DNA with 2'F-ANA
Medium: in vitro
Concentration: 200 nM
Setting: whole 15-mer aptamer, many near background
With: Cy3 exosite-II aptamer, 400 nM
Direction: higher = stronger binding
Oligonucleotide: GGTTGGTGTGGTTGG
Modification | mean fluorescence intensity
2'F-ANA at 1 7 9 12 15 | 417 a.u.
2'F-ANA at 7 8 12 13 15 | 762 a.u.
2'F-ANA at 3 6 11 13 14 15 | 465 a.u.
2'F-ANA at 3 4 8 9 12 | 1010 a.u.
2'F-ANA at 1 7 | 223 a.u.
2'F-ANA at 2 6 9 11 13 14 15 | 115 a.u.
2'F-ANA at 1 3 5 8 9 10 12 15 | 79 a.u.
2'F-ANA at 3 4 5 7 8 9 13 | 72 a.u.
2'F-ANA at 1 4 6 7 11 12 14 15 | 54.4 a.u.

Study 2
Target: Ras GTPase-activating protein-binding protein 1, C-terminal RGG region (G3BP1, Homo sapiens, UniProt Q13283)
UniProt Q13283, sequence (whole entry, looked up): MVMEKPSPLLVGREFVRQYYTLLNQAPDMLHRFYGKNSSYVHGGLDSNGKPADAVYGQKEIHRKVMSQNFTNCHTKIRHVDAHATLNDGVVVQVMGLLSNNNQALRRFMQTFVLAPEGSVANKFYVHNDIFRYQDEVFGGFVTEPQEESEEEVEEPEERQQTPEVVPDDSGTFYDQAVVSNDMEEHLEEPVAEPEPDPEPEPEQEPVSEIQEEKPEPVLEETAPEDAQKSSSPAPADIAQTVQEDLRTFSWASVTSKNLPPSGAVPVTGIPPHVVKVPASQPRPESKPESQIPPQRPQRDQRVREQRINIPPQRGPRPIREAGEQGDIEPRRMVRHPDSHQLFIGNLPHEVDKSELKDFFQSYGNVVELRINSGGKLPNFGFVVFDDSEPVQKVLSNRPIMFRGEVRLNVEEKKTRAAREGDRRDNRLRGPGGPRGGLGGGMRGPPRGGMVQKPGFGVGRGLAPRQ
Method: RNA Bind-n-Seq
Form: RNA
Medium: in vitro
Concentration: 1 µM
Setting: whole 134-nt RNA, ends assumed
With: 150 mM KCl
Reference: input library
Direction: higher = stronger binding
Constant ends, left off below: GGGAGUUCUACAGUCCGACGAUC … UGGAAUUCUCGGGUGUCAAGG
Oligonucleotide | log2 enrichment
AAGUCCUGUGCUACACAUCGUAUGUACCGAAUCGGAAAGGUUUUUGGAAAAAAAGGAAAGUAUUAUGUUACGCCGUUCGGAUCUGCACUU | -2.41
UGGGAGGUGGAUUUUGUUUAUCUUUUUAGCUCAUUUCCAGGGGUGGGAAUUUUUUUUUAAUAUGUGUCAUGAAUAAAGUUGUUUUUGAAA | 3.24
GUCCUGUGCUACACAUCGUAUGUACCGAAUCGGGGUGGGGUUUUUGGGGAAAAAGGGGAAAGUAUUAUGUUACGCCGUUCGGAUCUGCAC | 0.753
GCAGGAAGGAAAAACAAAUGGAAAUGCUUCGGAUAGUGGCAGGGGUGGGGGUUGCUAAGGAAAGGGUGGGAUGGGAGUGGGUAAAGAGUU | 1.69
UCAAGUCCUGUGCUACACAUCGUAUGUACCGAAUCGGGUUUGGGAAAGGGUGGGAAAGUAUUAUGUUACGCCGUUCGGAUCUGCACUUCC | 1.92
GUCCUGUGCUACACAUCGUAUGUACCGAAUCAAACCCAAAUUUUUAAACCCCCCCAAAAAAGUAUUAUGUUACGCCGUUCGGAUCUGCAC | -0.704
UCCUGUGCUACACAUCGUAUGUACCGAAUCAAACCCCCCCAAACCCAAAUUUUUUUAAAAAAGUAUUAUGUUACGCCGUUCGGAUCUGCA | -0.664
UCCUGUGCUACACAUCGUAUGUACCGAAUCGGGUUUUUUGGGUUUUUUGGGUUUUUUGGAAAGUAUUAUGUUACGCCGUUCGGAUCUGCA | -0.442
CCUGUGCUACACAUCGUAUGUACCGAAUCGGGGUUUUUGGGGUUUUUUUGGGGAAAGGGGAAAGUAUUAUGUUACGCCGUUCGGAUCUGC | 0.779

Study 3
Target: Sal-like protein 4, full length isoform B (SALL4, Homo sapiens, UniProt Q9UJQ4-2, residues 1-616)
Method: universal PBM
Form: double-stranded DNA, one strand shown
Medium: in vitro
Concentration: not given
Setting: 8-mer, flanks averaged, mean of replicates
Direction: higher = stronger binding
Construct (chain): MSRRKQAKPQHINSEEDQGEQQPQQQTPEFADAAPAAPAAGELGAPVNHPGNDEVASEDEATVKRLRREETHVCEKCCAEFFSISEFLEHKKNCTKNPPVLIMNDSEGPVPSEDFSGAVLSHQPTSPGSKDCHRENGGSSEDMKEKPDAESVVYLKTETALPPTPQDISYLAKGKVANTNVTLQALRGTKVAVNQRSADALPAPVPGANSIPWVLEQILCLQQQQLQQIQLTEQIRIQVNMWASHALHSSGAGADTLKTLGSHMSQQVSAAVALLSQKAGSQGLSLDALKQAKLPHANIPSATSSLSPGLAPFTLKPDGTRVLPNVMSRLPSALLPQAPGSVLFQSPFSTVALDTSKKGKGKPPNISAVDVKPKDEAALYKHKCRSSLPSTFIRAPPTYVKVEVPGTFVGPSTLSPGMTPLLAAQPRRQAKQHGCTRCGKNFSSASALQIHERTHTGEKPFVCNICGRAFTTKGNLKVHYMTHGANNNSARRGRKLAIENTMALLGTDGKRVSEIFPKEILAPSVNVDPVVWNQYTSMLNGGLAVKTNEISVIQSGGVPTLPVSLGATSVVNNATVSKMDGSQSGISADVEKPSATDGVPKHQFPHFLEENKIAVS
Oligonucleotide | E-score
ACGAAAGC | -0.0402
GCTATGCC | -0.0937
CAATTAGG | 0.0092
TCACGAGA | -0.0871
ACCGAGAA | -0.0237
AAACAGAC | 0.0817
GTAGTGAC | -0.0587
GCTCAGCA | -0.088
TCCCCGAA | -0.172

Other studies, line by line
Substance | target | test | system | conditions | how to read | quantity | result
PhoQ, residues 284 288 289 292 302 303 GLASVI | PhoP, residues 12 14 15 18 19 NQGLL (Escherichia coli, UniProt P23836) | Sort-seq, measured: YFP reporter | E. coli | PhoQ-PhoP variant library, with: 10 µM Mg2+ | reference: high Mg2+ state, higher = stronger signaling | fold induction | 7

Some of these lines once more (study 3):
Oligonucleotide | E-score
GCTCAGCA | -0.088
ACCGAGAA | -0.0237
AAACAGAC | 0.0817
